Published values collected from several papers.
Every numbered part comes from another study and shows a few of its results, in no order. Substitutions count along the parent as printed.
Sequence of UniProt P49674 (whole entry, looked up): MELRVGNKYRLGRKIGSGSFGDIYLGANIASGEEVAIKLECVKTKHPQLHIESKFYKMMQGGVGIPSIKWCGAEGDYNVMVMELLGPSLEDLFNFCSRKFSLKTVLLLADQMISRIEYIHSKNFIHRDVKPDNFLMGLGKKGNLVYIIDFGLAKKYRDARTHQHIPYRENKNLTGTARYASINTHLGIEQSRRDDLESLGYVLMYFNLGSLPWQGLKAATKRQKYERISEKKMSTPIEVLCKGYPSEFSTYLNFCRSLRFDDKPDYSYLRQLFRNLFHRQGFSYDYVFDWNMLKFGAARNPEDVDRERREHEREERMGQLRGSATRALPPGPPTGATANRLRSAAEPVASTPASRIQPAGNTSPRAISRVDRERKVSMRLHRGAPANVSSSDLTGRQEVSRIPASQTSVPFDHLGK

Set 1 — Change: E129L; technique: DHFR PCA, deep sequencing; matrix: yeast; reference: wild-type fitted maximum; direction: higher = stronger binding
Target: ABI1, truncated, D143A, DHFR fusion (Arabidopsis thaliana)
Notes: methotrexate growth selection, single substitutions
Starting sequence: PYL1, truncated, DHFR fusion (Arabidopsis thaliana); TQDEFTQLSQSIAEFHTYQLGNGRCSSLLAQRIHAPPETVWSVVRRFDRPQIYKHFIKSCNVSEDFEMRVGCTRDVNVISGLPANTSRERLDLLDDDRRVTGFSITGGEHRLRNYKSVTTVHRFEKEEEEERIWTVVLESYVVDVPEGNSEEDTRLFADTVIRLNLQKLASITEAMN
with | relative binding score
(+)-ABA 4.8 µM | 62.7%
(+)-ABA 17 µM | 79.4%
(+)-ABA 0.0091 µM | 11.6%
(+)-ABA 1.4 µM | 47.8%
(+)-ABA 58 µM | 92.5%
(+)-ABA 0.11 µM | 17.7%

Set 2 — technique: protein-binding microarray; molecule type: double-stranded DNA, one strand shown; matrix: in vitro; concentration: 2540 nM top; notes: 60-bp whole probe; with: salmon DNA 0.4 mg/ml; reference: random background probes; direction: higher = stronger binding; all sequences stand within: GCCTAGCAC … GTCTTGATTCGCTTGACGCTGCTG
Target: Interferon regulatory factor 3, full length, phosphomimetic (IRF3, Homo sapiens, UniProt Q14653, residues 1-427, S386D/S396D/S398D/S402D/T404D/S405D)
Target sequence (chain): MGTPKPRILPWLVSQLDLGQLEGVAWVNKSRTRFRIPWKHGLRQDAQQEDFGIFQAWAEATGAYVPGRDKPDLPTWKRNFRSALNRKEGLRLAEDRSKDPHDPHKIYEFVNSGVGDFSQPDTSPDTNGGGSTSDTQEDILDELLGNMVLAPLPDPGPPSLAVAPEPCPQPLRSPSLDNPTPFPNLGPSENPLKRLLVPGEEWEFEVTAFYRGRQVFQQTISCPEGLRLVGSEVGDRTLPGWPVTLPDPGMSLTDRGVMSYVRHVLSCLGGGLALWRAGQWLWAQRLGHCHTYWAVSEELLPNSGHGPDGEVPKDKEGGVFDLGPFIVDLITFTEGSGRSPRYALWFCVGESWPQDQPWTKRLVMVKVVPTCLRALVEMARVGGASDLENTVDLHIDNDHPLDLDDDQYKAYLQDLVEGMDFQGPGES
Oligonucleotide | fitted relative affinity [z-score]
TTTTCATTTTTTTTCATCATGTGCTAG | 3.73
GACGGACTGCTTTTCCTTACGTGCTAG | 0.306
GACGGTCTCCGACTGGGGACGTGCTAG | 0.5
TCAGGTTTCCTTTTCCTTTAGTGCTAG | 11.2
TCAGCTTCCTCTTTTTTACTGTGCTAG | 0.929
TCATCTTATCCTATCAGACTGTGCTAG | 1.95
TCAACATTGCACAATCTTACTGTGCTA | 0.346
TCAAAAATGGCTTTGCAACTGTGCTAG | -0.632

Set 3 — technique: competition protein-binding microarray; molecule type: double-stranded DNA, one strand shown; matrix: in vitro; concentration: 2 µM; with: Cbf1 competitor, 0.05 µM; direction: higher = stronger binding; all sequences stand within: … GTCTTGATTCGCTTGACGCTGCTG
Target: Phosphate system positive regulatory protein PHO4, full length, GST-tagged (PHO4, Saccharomyces cerevisiae, UniProt P07270, residues 1-312)
Notes: whole 60-bp probe, lowest competitor level
Target sequence (chain): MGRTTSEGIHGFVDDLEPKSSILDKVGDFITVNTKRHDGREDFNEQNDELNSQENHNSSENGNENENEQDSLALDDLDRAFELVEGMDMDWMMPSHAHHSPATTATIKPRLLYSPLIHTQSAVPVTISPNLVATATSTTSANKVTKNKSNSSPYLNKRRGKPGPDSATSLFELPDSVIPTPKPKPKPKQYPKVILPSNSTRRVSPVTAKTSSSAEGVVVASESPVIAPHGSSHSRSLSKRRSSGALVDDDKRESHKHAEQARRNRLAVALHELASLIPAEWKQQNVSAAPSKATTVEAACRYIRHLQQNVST
Oligonucleotide | fluorescence intensity [a.u.]
CTTCTGTAAATTTGTCACGTGGGTGGACGCGCCCCG | 16900
CTTCTGTAAATTTGAACTGTGGGTGGACGCGCCCCG | 4070
ATTGGGCGGCTAATCGGCGTGCTGTATAAATCGAGT | 9180
CTTCTTGTAATGTTGCGCGTGATGGGAATCGATGTC | 9430
CGTCCTAGTGATTGTTTTGTGGGTGCCATGAGGAAG | 6010
TGTTTGAGTGGCCAAGACGTGTTGAACTTCAGAAGT | 4730
TGCGCAACAACTTGAATTGTGGGTGTATGTCTAGAA | 4870
AAGCTAAAGCTCCGTCACGTGTAGGTGGATACTGTT | 14200

Mixed results
Structure (SMILES) | target | observed | action | concentration | reference | quantity | result
CC[n+]1c(/C=C/N(C)c2ccccc2)n(-c2ccccc2)c2ccc(-c3nc4ccccc4s3)cc21 | Casein kinase I isoform epsilon (CSNK1E, Homo sapiens, UniProt P49674) | enzyme activity | inhibitor | 0.5 µM | control | remaining activity | 105%

Some of these lines once more (set 2):
Oligonucleotide | fitted relative affinity [z-score]
GACGGTCTCCGACTGGGGACGTGCTAG | 0.5
